# Results collected from several papers.
# Parts stem from different laboratories: compare values within a part only.
# Chain of UniProt Q02763 (whole entry, looked up): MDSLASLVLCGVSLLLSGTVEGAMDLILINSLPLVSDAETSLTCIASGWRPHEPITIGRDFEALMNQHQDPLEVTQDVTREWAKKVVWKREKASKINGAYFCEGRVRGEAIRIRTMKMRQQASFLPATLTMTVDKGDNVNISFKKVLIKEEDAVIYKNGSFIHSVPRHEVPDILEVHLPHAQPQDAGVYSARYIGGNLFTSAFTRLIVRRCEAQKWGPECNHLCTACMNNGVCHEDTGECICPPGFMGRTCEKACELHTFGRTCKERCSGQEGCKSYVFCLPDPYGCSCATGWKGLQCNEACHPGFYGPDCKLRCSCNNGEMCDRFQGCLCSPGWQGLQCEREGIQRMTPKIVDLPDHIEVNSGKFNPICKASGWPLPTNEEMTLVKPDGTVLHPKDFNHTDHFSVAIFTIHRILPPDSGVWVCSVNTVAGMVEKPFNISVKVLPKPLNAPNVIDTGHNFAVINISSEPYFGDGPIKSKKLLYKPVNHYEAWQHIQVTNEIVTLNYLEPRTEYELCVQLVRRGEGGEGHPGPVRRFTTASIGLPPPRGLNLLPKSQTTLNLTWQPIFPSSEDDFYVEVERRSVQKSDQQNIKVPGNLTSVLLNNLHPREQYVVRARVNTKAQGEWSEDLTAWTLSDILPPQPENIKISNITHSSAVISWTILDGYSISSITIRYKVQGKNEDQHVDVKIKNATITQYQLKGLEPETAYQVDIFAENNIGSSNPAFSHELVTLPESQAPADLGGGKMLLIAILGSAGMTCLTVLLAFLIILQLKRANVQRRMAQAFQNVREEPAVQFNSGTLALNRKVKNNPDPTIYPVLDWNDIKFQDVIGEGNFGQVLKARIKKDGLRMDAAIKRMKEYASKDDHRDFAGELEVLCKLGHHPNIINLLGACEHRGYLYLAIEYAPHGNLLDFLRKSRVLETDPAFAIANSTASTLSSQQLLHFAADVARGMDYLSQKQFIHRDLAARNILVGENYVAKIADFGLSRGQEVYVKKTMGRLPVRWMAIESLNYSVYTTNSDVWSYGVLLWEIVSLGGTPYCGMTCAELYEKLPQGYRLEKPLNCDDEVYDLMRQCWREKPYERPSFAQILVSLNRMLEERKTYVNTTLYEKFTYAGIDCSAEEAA
# Chain of UniProt P78368 (whole entry, looked up): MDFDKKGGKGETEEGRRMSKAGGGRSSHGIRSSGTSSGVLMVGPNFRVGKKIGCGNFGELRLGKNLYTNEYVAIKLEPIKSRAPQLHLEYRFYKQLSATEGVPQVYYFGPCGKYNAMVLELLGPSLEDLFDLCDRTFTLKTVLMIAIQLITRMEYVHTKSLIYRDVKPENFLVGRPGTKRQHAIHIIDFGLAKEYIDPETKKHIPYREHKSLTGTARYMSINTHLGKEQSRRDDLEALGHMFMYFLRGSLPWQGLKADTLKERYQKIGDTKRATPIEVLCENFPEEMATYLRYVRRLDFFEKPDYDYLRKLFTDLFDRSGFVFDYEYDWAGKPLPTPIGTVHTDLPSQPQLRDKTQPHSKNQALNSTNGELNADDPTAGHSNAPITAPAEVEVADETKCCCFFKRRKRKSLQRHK
# Chain of UniProt Q8WTQ7 (whole entry, looked up): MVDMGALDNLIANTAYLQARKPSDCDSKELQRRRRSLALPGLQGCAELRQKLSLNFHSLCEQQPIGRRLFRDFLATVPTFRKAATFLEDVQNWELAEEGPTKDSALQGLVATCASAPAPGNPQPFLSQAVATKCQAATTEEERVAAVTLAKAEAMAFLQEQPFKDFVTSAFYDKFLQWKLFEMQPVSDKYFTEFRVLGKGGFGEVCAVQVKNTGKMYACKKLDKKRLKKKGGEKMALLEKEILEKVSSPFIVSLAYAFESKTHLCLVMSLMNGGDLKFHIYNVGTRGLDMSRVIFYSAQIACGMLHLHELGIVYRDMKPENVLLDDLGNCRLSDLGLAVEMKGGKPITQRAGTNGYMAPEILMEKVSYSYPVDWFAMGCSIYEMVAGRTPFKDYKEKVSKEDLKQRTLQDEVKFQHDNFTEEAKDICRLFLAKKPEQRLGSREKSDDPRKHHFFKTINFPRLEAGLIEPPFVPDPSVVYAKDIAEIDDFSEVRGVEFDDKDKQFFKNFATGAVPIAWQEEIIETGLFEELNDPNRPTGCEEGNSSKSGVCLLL
# Chain of UniProt P11362 (whole entry, looked up): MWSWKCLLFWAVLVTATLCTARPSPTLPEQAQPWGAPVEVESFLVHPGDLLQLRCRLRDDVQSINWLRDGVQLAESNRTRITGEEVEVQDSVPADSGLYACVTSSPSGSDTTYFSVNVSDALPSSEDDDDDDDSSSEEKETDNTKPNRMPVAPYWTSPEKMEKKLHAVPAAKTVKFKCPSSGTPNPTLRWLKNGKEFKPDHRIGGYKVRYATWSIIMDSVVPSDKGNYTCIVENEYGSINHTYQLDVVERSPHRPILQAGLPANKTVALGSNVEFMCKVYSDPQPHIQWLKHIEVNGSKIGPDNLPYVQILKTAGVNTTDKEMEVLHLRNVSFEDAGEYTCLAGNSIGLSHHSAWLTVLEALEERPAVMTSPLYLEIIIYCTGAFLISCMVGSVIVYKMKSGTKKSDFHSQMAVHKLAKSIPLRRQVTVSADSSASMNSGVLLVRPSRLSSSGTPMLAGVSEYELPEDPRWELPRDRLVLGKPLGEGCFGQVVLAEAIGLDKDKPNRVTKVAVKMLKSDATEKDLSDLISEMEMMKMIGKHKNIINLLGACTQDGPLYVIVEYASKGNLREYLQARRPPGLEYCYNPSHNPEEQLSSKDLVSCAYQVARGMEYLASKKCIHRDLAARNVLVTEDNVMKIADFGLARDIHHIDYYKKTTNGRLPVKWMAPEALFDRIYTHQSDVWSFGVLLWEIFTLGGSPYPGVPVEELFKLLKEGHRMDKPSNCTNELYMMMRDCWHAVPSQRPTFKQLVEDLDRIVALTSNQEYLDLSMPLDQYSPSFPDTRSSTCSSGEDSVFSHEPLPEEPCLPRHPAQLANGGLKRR
# Chain of UniProt P52333 (whole entry, looked up): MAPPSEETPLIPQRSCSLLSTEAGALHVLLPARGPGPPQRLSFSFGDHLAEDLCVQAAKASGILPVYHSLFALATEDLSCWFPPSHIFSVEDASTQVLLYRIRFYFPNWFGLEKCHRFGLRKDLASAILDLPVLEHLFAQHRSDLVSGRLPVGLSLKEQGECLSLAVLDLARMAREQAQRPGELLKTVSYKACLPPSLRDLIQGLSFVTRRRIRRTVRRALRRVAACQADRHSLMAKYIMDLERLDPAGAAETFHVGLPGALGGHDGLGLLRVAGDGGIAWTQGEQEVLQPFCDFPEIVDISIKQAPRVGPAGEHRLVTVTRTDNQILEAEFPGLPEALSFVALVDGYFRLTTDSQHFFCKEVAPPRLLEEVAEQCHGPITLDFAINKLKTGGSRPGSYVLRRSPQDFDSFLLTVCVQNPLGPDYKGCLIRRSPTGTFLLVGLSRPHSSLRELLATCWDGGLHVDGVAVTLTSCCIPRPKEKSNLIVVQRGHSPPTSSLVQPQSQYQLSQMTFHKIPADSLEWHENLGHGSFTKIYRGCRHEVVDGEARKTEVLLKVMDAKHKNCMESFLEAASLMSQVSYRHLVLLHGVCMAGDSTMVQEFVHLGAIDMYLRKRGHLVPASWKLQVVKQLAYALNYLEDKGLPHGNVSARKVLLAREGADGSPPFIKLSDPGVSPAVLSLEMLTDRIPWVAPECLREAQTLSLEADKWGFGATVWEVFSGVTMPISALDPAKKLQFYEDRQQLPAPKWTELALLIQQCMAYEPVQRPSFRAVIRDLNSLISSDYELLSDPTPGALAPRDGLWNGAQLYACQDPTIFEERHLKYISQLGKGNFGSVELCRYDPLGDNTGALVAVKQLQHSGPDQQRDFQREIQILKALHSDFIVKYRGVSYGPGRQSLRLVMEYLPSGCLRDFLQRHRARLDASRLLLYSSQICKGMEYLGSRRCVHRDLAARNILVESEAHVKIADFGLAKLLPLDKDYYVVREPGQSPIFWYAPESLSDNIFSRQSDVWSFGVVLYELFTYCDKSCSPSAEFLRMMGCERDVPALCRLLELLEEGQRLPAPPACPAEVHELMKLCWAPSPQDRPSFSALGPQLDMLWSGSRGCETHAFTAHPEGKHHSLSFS

# Sample 1
# SMILES: O=c1cc(N2CCOCC2)oc2c(-c3ccccc3)cccc12
# Observed: enzyme activity
# Action: inhibitor
# Tested at: 0.5 µM
# Relative to: control
target,remaining activity [%]
"Macrophage-stimulating protein receptor (MST1R, Homo sapiens, UniProt Q04912)",109
"Mitogen-activated protein kinase kinase kinase 5 (MAP3K5, Homo sapiens, UniProt Q99683)",96.2
"Dual specificity mitogen-activated protein kinase kinase 2 (MAP2K2, Homo sapiens, UniProt P36507)",96.8
"Tyrosine-protein kinase JAK3 (JAK3, Homo sapiens, UniProt P52333)",103
"Glycogen synthase kinase-3 beta (GSK3B, Homo sapiens, UniProt P49841)",96.9
"Mitogen-activated protein kinase kinase kinase 14 (MAP3K14, Homo sapiens, UniProt Q99558)",101
"Casein kinase I isoform gamma-2 (CSNK1G2, Homo sapiens, UniProt P78368)",94.4
"Ephrin type-A receptor 3 (EPHA3, Homo sapiens, UniProt P29320)",98.7
"Angiopoietin-1 receptor (TEK, Homo sapiens, UniProt Q02763)",89.2
"Fibroblast growth factor receptor 1 (FGFR1, Homo sapiens, UniProt P11362)",96.6
"Serine/threonine-protein kinase Nek1 (NEK1, Homo sapiens, UniProt Q96PY6)",86.7
"Fibroblast growth factor receptor 3 (FGFR3, Homo sapiens, UniProt P22607)",95.9
"Rhodopsin kinase GRK7 (GRK7, Homo sapiens, UniProt Q8WTQ7)",112

# Sample 2
# SMILES: O=C(O)[C@@H]1[C@@H](Cn2nnc3ccccc3c2=O)CC[C@H]1C(=O)c1ccc(OCCC2CCOCC2)cc1
# Observed: cell-free assay
# Technique: competition with immobilised ligand
# Tested at: 1 µM
target,remaining binding [%]
"Mast/stem cell growth factor receptor Kit (KIT, Homo sapiens, UniProt P10721, V559D/V654A)",94
"Epidermal growth factor receptor (EGFR, Homo sapiens, UniProt P00533, del746-750)",95
"Serine/threonine-protein kinase N2 (PKN2, Homo sapiens, UniProt Q16513)",100
"Tyrosine-protein kinase ABL1, phosphorylated (ABL1, Homo sapiens, UniProt P00519, H396P)",84

# Sample 3
# Target: Ras GTPase-activating protein-binding protein 1, C-terminal RGG region (G3BP1, Homo sapiens, UniProt Q13283)
# Chain of UniProt Q13283 (whole entry, looked up): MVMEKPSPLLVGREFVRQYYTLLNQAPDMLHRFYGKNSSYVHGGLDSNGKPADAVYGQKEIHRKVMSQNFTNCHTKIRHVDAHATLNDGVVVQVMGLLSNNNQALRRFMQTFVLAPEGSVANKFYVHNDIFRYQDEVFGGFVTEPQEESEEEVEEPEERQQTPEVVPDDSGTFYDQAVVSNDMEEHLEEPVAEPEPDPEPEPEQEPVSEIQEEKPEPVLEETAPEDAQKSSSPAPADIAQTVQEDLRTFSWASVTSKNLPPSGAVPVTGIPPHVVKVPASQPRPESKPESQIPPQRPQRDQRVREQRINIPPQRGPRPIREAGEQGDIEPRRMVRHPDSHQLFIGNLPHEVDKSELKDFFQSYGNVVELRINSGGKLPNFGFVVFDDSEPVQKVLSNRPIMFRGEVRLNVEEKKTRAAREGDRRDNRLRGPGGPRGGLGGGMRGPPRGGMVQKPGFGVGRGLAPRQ
# Technique: RNA Bind-n-Seq
# Form: RNA
# Sample: in vitro
# Tested at: 1 µM
# Setting: whole 134-nt RNA, ends assumed
# Together with: 150 mM KCl
# Relative to: input library
# Direction: higher = stronger binding
Sequence,log2 enrichment
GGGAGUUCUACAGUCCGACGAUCUUAAGUGUAUUGGAGCCCCAAGUUCUCAAUUAUUUGAGCCUCCGGGCGACAGAGCAAGAAAAGGUGAGUGGAUAGCGCAGGCAUAUUGGUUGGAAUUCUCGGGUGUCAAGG,-0.258
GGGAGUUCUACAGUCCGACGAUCUCAAGUCCUGUGCUACACAUCGUAUGUACCGAAUCGGAAAAAAAGGUUUGGAGGAAAGUAUUAUGUUACGCCGUUCGGAUCUGCACUUCCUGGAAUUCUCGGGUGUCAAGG,-1.44
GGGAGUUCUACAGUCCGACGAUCCCUGUGCUACACAUCGUAUGUACCGAAUCGGGGUUUUUUGGGUUUUUUGGGGUUUUUUGGAAAGUAUUAUGUUACGCCGUUCGGAUCUGCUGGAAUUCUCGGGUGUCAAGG,-1.25
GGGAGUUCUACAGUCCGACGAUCUGGGAGGUGGAUUUUGUUUAUUUUUUUAGCUCAGUUCCAGGGGUGGGAAUUUUUUUUUAAUAUGUGUCAUGAAUAAAGUUGUUUUUGAAAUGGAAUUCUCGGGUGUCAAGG,2.89
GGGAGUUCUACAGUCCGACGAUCUUCUGGUCUGCUCACCAGAGGUUCUUCAAAUACUUAUGCAUAGCAUCCAAAGUUAAAAGGGUUGUGCAACUAGCUCGAGAGGAAAUCAAGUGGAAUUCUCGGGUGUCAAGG,-1.77
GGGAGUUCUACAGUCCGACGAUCUCGGACGCCGCCAACCUGCACGAGUUCCACGCGGACCUGCGCUCAUGCUUUGCACCCCAGCACAUGGCCAUGCUGUGUAGCCCCAUCCUCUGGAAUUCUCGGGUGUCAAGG,0.818
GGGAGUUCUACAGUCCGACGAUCAAGUCCUGUGCUACACAUCGUAUGUACCGAAUCGGGGCCCGGGGCCCGGGCCCGGGAAAGUAUUAUGUUACGCCGUUCGGAUCUGCACUUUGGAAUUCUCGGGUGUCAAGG,-2.28
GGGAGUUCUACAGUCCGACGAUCUGGGAGGUGGAUUUUGUUUAUUUUUUUAGCUCAUUUCCAGGGGUGGGAAUUUUUGUUUAAUAUGUGUCAUGAAUAAAGUUGUUUUUGAAAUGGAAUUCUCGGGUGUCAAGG,4.06

# Sample 4
# Target: Eukaryotic initiation factor 4A-I (EIF4A1, Homo sapiens, UniProt P60842, residues 1-406, full length assumed)
# Chain of UniProt P60842 (whole entry, looked up): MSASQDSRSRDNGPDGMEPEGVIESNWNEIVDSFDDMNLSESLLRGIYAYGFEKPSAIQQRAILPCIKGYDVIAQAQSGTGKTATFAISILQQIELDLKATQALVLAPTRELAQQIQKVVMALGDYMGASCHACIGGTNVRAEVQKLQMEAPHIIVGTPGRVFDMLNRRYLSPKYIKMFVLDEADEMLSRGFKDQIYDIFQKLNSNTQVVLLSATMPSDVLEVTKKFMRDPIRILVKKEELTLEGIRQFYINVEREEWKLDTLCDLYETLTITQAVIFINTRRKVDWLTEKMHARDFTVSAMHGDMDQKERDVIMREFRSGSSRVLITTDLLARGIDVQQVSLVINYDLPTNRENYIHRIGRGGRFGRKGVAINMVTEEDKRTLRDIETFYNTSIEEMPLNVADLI
# Technique: RNA Bind-n-Seq
# Form: RNA
# Sample: in vitro
# Tested at: 15 pmol
# Setting: 4-mer, random 30-nt RNA, single round
# Together with: 3 µM DMDA-PatA, 2 mM AMP-PNP
# Relative to: input library
# Direction: higher = stronger binding
Sequence,4-mer enrichment
GAUG,1.33 fold
AUUG,1.31 fold
AUGA,1.11 fold
UUGC,0.976 fold
UCGG,1.27 fold
UUCA,0.615 fold
CAAA,0.579 fold
CCCA,0.526 fold

# Excerpt of the above (sample 4):
Sequence,4-mer enrichment
AUUG,1.31 fold
CAAA,0.579 fold
